Assay results collected from several papers.
Parts stem from different laboratories: compare values within a part only.

Block 1
Target: Sal-like protein 4, full length isoform A (SALL4, Homo sapiens, UniProt Q9UJQ4, residues 1-1053)
Chain of UniProt Q9UJQ4 (whole entry, looked up): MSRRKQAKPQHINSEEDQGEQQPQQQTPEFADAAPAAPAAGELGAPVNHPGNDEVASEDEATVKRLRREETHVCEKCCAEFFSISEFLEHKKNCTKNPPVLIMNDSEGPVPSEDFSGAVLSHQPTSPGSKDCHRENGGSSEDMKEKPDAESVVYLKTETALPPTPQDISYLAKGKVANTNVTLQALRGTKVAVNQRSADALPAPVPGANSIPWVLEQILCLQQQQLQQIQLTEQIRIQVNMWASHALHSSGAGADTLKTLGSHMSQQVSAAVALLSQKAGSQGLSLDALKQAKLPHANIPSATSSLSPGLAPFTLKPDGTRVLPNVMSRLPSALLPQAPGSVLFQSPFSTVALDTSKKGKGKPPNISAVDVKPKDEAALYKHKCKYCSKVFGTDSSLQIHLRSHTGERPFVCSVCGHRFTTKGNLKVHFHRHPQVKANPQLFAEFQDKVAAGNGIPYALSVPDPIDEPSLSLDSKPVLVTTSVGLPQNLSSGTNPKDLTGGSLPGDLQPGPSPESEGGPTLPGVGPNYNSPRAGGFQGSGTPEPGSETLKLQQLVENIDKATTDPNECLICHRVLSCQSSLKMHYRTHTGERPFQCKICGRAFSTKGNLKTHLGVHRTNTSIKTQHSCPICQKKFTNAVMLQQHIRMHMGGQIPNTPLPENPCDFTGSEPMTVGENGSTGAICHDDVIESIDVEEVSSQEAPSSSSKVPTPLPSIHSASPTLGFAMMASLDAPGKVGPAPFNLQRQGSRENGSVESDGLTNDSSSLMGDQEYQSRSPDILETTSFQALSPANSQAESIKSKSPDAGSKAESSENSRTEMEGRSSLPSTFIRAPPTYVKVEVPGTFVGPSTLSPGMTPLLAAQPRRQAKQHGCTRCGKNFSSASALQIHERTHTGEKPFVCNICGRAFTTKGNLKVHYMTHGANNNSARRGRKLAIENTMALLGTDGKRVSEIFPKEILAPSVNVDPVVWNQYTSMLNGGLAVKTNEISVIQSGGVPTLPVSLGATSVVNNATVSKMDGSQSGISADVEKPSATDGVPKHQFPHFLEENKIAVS
Method: universal PBM
Molecule type: double-stranded DNA, one strand shown
Sample: in vitro
Tested at: 600 nM
Setting: 8-mer, flanks averaged, mean of replicates
Reading: higher = stronger binding
With `TAAGTGGA` the E-score was 0.203.
The E-score of `CTCTGTTA` is reported as 0.0373.
`AATCTTGT` gave an E-score of 0.165.
`GGCTAGGA` has an E-score of -0.105.
With `AATAAATA` the E-score was 0.431.
For `AGGCTTAA`, the E-score was 0.0852.
`CATAAGGG` gave an E-score of 0.14.
For `ACCAATCA`, the E-score was 0.0963.
With `AGTGTTAG` the E-score was 0.0373.
For `GAAATGAA`, the E-score was 0.266.
With `ATGACATA` the E-score was 0.3.
`AACTCCTT` has an E-score of 0.159.
The E-score of `CGGACCAG` is reported as -0.338.
With `CGTGTAAC` the E-score was 0.0492.
With `AGGATTAC` the E-score was 0.0696.
`AACCGTGG` has an E-score of -0.196.
For `AACATGGG`, the E-score was 0.025.
For `AGTTCCTA`, the E-score was 0.0662.
`GCCTCAAA` has an E-score of -0.136.
`CCCGATTC` has an E-score of -0.0927.

Block 2
Target: RING finger protein unkempt homolog, zinc fingers 1-6, GST-SBP tag (UNK, Homo sapiens, UniProt Q9C0B0, residues 30-357)
Method: RNA Bind-n-Seq
Molecule type: RNA
Sample: in vitro
Tested at: not given
Setting: RNA with constant flanks, human and mouse sites, ends assumed
Reference: input RNA pool
Reading: higher = stronger binding
Constant ends, left off below: GGGAGUUCUACAGUCCGACGAUC … CAACAGAGGAUUGAGCAUCA
Construct (chain): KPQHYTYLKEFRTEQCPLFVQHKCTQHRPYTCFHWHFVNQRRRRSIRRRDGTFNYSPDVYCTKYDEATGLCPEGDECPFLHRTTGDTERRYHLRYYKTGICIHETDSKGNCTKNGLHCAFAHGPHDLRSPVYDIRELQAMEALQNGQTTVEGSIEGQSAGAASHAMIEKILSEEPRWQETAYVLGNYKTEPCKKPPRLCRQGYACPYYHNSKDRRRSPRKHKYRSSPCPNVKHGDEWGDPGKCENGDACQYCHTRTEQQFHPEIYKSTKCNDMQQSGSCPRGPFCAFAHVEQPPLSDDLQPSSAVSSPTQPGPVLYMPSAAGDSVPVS
`UGCUUGAGGCCCCUUACAAGAAGGAUGAGAACAAGUUGAACAGUGCUAACGGCCAUGAAGAACGUAGCAAAAAGAGAAAAAAAAGCAAGAGCAGAAGUCGUAGUCAUGAGAGAAAAAGAA` has a bound/input enrichment of 0.891 ratio.
`GGACGAGAGCCUCUGACCUACUAUGACAUGAACCUCUCUGCCCAGGACCACCAGACAUUCUUUACUUGUGAUUCAGAUCAUCUUCGCCCUGCAGAUGCAAUAAUGCAAAAAGCUUGGAGA` has a bound/input enrichment of 0.214 ratio.
For `CCUGGGAACAGCACCCAGUACAACAUCCUGGAAGGGUUGGAAAAGCUCAAACAUCUAGACUUUCUGAAGCAGCCACUGGCCACCCAAAAGGAUCUCACUGGCCAGGUGCCCACUCCUGUG`, the bound/input enrichment was 0.4 ratio.
The bound/input enrichment of `AUAAGAGGUAUUGCCCUUAGAGCACUCCUCACUCCCCCAAUCUCCAAAUCCUACCUCUUCAGGCAGAGUGAAUGAGUGGCUUAUAGCAGUGGCCCUCAGUAACCAGAAGUUCUGUCUUGA` is reported as 0.228 ratio.
With `UCCCCACUGAAGCAUGCAUAUGCCGCUGUCACCAAAAGCAAACUCUGUCAUUCAGAGCCUUUCCGUGUCUCCUCUUGCCCGCCCUUGUCCACCACUUUCAACGAUGUCCCCAGGUUGUCC` the bound/input enrichment was 0.252 ratio.
The bound/input enrichment of `CUACUACUUUGGGCUCAGAACGAGCUGGACCAGAAGAAAGUAAAAUAUCCCAAAAUGACAGACCUCAGCAAGGGUGUGAUUGAGGAGCCCAAGUAGCGCCUGCGCUUGCGUGGUGGAUCC` is reported as 0.0972 ratio.
For `AAUAACAGGGCCAGGCACAGGGCCAAGCGAGAAGCUUGCAUUGAUUUCAUGCCUGGGUCUAUAGAUGUAAUUAAAAAAGAGUCCUGUUUCUGGCCUGAAGAAAAUGCUAAUACCUUUUCA`, the bound/input enrichment was 0.419 ratio.
With `UAUGGUGGGGUUGGUAAUUCAUCGGUUUCUGGUCAUGGCAUUCUCCCAAGCUAUCAGGAACUAGUAGAAGAUCGUUUCAGGAAACCUCAUGCUUUUGCUGUACCUGGACAGUCAUAUCAG` the bound/input enrichment was 0.46 ratio.
`GGGACCCCGUGUCAUCGCCCAGGCCGAGCACGGAAAUCUACUUUCUUCAAUGUGUUAACCAAUAGUCAGGCUUCAGCAGAAAACUUCCCGUUCUGCACUAUUGAUCCUAAUGAGAGCAGA` gave a bound/input enrichment of 0.269 ratio.
`AAAAACAAAAUUAAAAGCUAUUCAAUUCUGCAUGGAAUAUAUCUGCUGUCAUCUUAAUCUUAGUUUGGAUCAACCUCAUUUAUUUAUCUUAAAAUUAACCAGCUUUCUCAGUUCCAUCCA` gave a bound/input enrichment of 2.45 ratio.
For `GCUCUGGGCUUUUCUGAUGUGGAUCACACCUAUGCUCAAAGAACUCAGCUCUUUGACACCUUAGUAAAUUUCUUUCCUGACAGCAUGACUCCUCCUAAAGGCAACCUGGUAGACCUCAUC`, the bound/input enrichment was 3.2 ratio.

Block 3
Target: Ras GTPase-activating protein-binding protein 1, C-terminal RGG region (G3BP1, Homo sapiens, UniProt Q13283)
Chain of UniProt Q13283 (whole entry, looked up): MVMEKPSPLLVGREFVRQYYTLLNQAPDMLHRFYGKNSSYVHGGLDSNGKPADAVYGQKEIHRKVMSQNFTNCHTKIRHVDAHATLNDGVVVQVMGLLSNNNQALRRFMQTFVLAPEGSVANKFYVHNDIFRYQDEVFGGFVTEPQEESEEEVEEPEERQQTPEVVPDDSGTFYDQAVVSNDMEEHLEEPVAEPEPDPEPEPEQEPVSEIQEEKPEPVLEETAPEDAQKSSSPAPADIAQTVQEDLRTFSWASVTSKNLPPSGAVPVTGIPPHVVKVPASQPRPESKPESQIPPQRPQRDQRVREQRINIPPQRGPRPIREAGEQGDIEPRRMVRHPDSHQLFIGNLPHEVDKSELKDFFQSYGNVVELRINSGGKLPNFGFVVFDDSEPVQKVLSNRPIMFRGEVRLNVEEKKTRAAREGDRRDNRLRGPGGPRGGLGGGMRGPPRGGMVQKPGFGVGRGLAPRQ
Method: RNA Bind-n-Seq
Molecule type: RNA
Sample: in vitro
Tested at: 1 µM
Setting: whole 134-nt RNA, ends assumed
Added: 150 mM KCl
Reference: input library
Reading: higher = stronger binding
Constant ends, left off below: GGGAGUUCUACAGUCCGACGAUC … UGGAAUUCUCGGGUGUCAAGG
`UGGCCCUGGUGGCAUGCGGGGAGGAAGAGGUGGCCUCGUGGAUCGUGGUGGUCCCGGUGGAAUGUUCAGAGGUGGCCGUGGUGGAGACAG` gave a log2 enrichment of 2.15.
The log2 enrichment of `CACAGACAACACGCACCCACACAGACACAGAGGGAAGGGGUUGGGAUGGGGACAGGGUGCACAAAAGGGCGGGGUAGGACCCCAGCCCCU` is reported as -0.245.
For `AGUCCUGUGCUACACAUCGUAUGUACCGAAUCGGGGAAAAGGGAAAAGGGAAAAGGGAAAGUAUUAUGUUACGCCGUUCGGAUCUGCACU`, the log2 enrichment was 1.17.
The log2 enrichment of `CCUGUGCUACACAUCGUAUGUACCGAAUCGGGGCCCCCCCGGGCCCCCCCGGCCCCCCCGGAAAGUAUUAUGUUACGCCGUUCGGAUCUG` is reported as -1.27.
`AAGUCCUGUGCUACACAUCGUAUGUACCGAAUCGGGAGGGUUUUUUUGGGAAAGGGAAAGUAUUAUGUUACGCCGUUCGGAUCUGCACUU` has a log2 enrichment of -0.118.
With `GUCCUGUGCUACACAUCGUAUGUACCGAAUCAAACCCCCAAAUUUAAAUUUUUUUAAAAAAGUAUUAUGUUACGCCGUUCGGAUCUGCAC` the log2 enrichment was -0.565.
The log2 enrichment of `GCAGGAAGUAAAAACAAAUGGAAAUGCUUCGGAUAGUGGCAGGGGUGGGGGUUGCUAAGGAAAAAGUGGGAUGGGAGUGGGUAAAGAGUU` is reported as 2.06.
For `CAAGUCCUGUGCUACACAUCGUAUGUACCGAAUCGGCCCCGGGCCCCGGGCCCCGGAAAGUAUUAUGUUACGCCGUUCGGAUCUGCACUU`, the log2 enrichment was -1.99.
With `GAGGAGAUAAUCUCGGAAAAGUUACGGAAACCUGGGAAGUCGGCGAAACCCUACGUUCGGGUGUUUUCGGAAGCAGCCGAAGCGGCCGCC` the log2 enrichment was -1.03.
The log2 enrichment of `AGUCCUGUGCUACACAUCGUAUGUACCGAAUCGGGUUUUGGGGUUUUGGUUUUGGGGAAAGUAUUAUGUUACGCCGUUCGGAUCUGCACU` is reported as -0.398.
`GUCCUGUGCUACACAUCGUAUGUACCGAAUCAAAUUUUUAAAUUUAAAUUUUUUUAAAAAAGUAUUAUGUUACGCCGUUCGGAUCUGCAC` gave a log2 enrichment of -2.22.
`CCUGUGCUACACAUCGUAUGUACCGAAUCGGCCCCCCCGGCCCCCCCGGGGCCCCCCCGGAAAGUAUUAUGUUACGCCGUUCGGAUCUGC` gave a log2 enrichment of -1.14.
The log2 enrichment of `UGGCCCUGGUGGCAUGCGGGGAGGAAGAGGUGGCCUCAUGGAUAGUGGUGGUCCCGGUGGAAUGUUCAGAGGUGGCCGUGGUGGAGACAG` is reported as 2.36.
With `UCCUGUGCUACACAUCGUAUGUACCGAAUCGGUUUUUUGGGGUUUUUUGGUUUUUUGGGGAAAGUAUUAUGUUACGCCGUUCGGAUCUGC` the log2 enrichment was -1.03.

Block 4
Target: RNA binding protein fox-1 homolog 2, RRM domain, GST-SBP tag (RBFOX2, Homo sapiens, UniProt O43251-10, residues 100-194)
Method: RNA Bind-n-Seq
Molecule type: RNA
Sample: in vitro
Tested at: 365 nM
Setting: natural RNA segment, single round, ends assumed
Reference: no-protein control
Reading: higher = stronger binding
Constant ends, left off below: GGGAGUUCUACAGUCCGACGAUC … UGGAAUUCUCGGGUGCCAA
Construct (chain): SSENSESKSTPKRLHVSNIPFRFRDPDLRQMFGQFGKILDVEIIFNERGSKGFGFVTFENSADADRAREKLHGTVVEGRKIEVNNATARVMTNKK
Under “RBNS enrichment (R)”, `CCUGGGAAGAACUGCCCUUCUGCAAAGGGGGGACUGCAUGGUUGCAUUUUCAUCACUGAAAGUCAGAGGCCAAGGAAAUCAUUUCUACUUCUUUAAAAACUCCUUCUAAG` is recorded as 2.75.
`AGCUUCCUCCGCAUCCUCCCAUCUUGCCCCAUUUCUGCCACGUCAGACACUUCCUGAGAGUCUCACCUUCAAAAUGACACCGCUGCCCAUCCAUUGCUCAAUGGUACAGA`: “RBNS enrichment (R)” 0.93.
Under “RBNS enrichment (R)”, `AAACAUCACGCUCCCCUGUAUGGGGAGAAGAAGGGUCAAGAUGGAUUUCUGCAGUUCCUGCGUUGGGCAGUAGGGUGAAGAGUGGGGCCAUCAUCUCAUAAAAGGAAUUC` is recorded as 0.492.
Under “RBNS enrichment (R)”, `UAGAAUUAUUUAAUUUUGUGAUUUGUUCUUCCAUAUGACAUUGAGCAAAUAGAUCUGUUUCAAAAUAUGUUCCCGCUAUGUGGAUAACUCUUCUUUUUAAAAAGAAAAUA` is recorded as 0.409.
`CCCACACUGAGCUGCCCACACUCGAGAGCCAGAUAUUUUUGUAGUUUUUAUGCCUUUGGCUAUUAUGAAAGAGGUUAGUGUGUUCCCUGCAAUAAACUUGUUCCUGAGAA` — result for “RBNS enrichment (R)”: 0.819.
`ACAAAUUUCGCCAUACUCAGUGGGACUCUCAAGUAGACUUUCAUAGUUGCAGUCACUUCAGGUCUCUCCCUCGGGUUCCCUUAGGAUGCAAGCACAAGAACAGACACCUG` — result for “RBNS enrichment (R)”: 0.308.
`AACUCGUAUAGGUGAACAUUCUUGGAGGCUUAUCUCUUCCCUGGCCAGAUGCCUGAUCAGAUGAGAAGCCCGCCAUGAUACUGUCACAGUGCCUAGAAUGGGCUCUUUAU` — result for “RBNS enrichment (R)”: 0.201.
For `CCAGGCACUGUUUCUCUGAGUUUUGUUGUUUUGUUUUCUUUGAAGGCUACUGAGCCCAAGCUUCCCGCAUUCCCUUAGUAACAAGAGACAGGACAGAGAGAAGGUCUACU`, “RBNS enrichment (R)” read 0.531.
`CAUGGGAGCCUCUUAGUGAUUGUGUCAGUAUUAUUGUGGAAGAUUGCCUUUGCUGUUGUAUGUAAAGUUUCAAAUUGCUCCUCUUGUGACUUUUCAGCCAGUACCAUUUU`: “RBNS enrichment (R)” 0.467.
Under “RBNS enrichment (R)”, `GGUCUUGAAUUUUGUUGGUUACAUAUGCCUUUUUGUUGUUGUUUGUCUUCACUUUUGAUAUAUAAACAGGUAAAUAUGUUUUUUAAAAAAUACUAAAUAUAGAGAAUAUG` is recorded as 0.65.
`CCUGGUUUUGAUGAGCAUUGAAGGCACCUGGGAAAUGAGGCCCACAGACUCAAAGUUACUCUCCUUCCCCCUACCUGGGCCAGUGAAAUAGAAAGCCUUUCUAUUUUUUG`: “RBNS enrichment (R)” 3.15.
For `CUGCUAGCUUGCAAAGUUAUGAGAGUUUAAAAAAUAAAAUAUAUGAAAAUAUGUAAAGCUGUUGAGAUGUGUUUACUUAUACUUCAGAACAUUAAAAGUUUAAAAACUGG`, “RBNS enrichment (R)” read 1.02.
